Experimental data of several laboratories.
Every numbered part comes from another study and shows a few of its results, in no order. Substitutions count along the parent as printed.

Block 1
Target: RING finger protein unkempt homolog, zinc fingers 1-6, GST-SBP tag (UNK, Homo sapiens, UniProt Q9C0B0, residues 30-357)
Technique: RNA Bind-n-Seq
Molecule type: RNA
Sample: in vitro
Concentration: not given
Notes: RNA with constant flanks, ends assumed
Relative to: input RNA pool
Direction: higher = stronger binding
Shared flanks, not repeated: GGGAGUUCUACAGUCCGACGAUC … CAACAGAGGAUUGAGCAUCA
Residues (chain): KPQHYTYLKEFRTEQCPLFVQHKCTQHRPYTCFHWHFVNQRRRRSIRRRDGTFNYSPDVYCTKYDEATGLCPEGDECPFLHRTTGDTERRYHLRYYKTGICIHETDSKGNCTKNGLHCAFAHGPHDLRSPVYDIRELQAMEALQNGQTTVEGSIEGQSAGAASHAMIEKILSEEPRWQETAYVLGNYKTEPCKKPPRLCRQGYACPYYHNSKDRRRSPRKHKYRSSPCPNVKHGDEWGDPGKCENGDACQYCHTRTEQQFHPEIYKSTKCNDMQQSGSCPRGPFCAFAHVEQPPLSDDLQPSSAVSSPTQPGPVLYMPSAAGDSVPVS
Strand	bound/input enrichment [ratio]
UUAUGGUGCACUUUUUCGCUAUUUAAGUUGGAUAUUUCUCUACAUUCCUGAAACAAUUUUCCGGUUUUUUUUGUACUAGAAAAUGCAGGCAGUGUUUUCACAAAAGUAAAUGUACAGUGA	0.156
AGGCUCAUCCAGCCCUAUAUCCACAACUACUCCUGGCUGCUCUUUGCUGCCCUGGCUCUCUACCGUGCCCACCUGACCAGUACAGAGCAGGUGGAUGGGGAGCAGCUGGACCCCCAGGCC	0.0727
AUCAAUGUGAAGAAGGGGAGCAUCUCGGGGAUUACCAUGGUGCUGGCAUGCUACGUGCUCUUCCGCUACUCCUUUUCCUACAAGCAUCUCAAGCACGAGCGGCUCCGCAAAUACCACUGA	0.16
GGCUUUUCCCAGUCCUUCACGCAAGAGCAAGUAGCUGAUAUUGACGGGCAGUAUGCAAUGACCCGGGCUCAGAGGGUCCGAGCUGCCAUGUUCCCUGAGACGCUAGAUGAGGGCAUGCAG	0.108
GGGGUUCAGGGUGAGGAGAGCGCGGAGGGACUGUGUCCCAGUUGGUGGUGUGUGGGGUCUAUCCGUCUCAUCCAUGUCUGUUUGUCCUCAGCCCUGAGGUGCGCACCGAUAUCGAUAUUC	0.139
GAGGAAGAGGAGGAGGAGAGCCCCGACACAGGUGGAGAAUAUAAAUAUUCAGGAAGAGACCGCUUGAUUUUUCUGGUUGAUGCCUCCAGGGCUAUGUUCGAAUCUCAGGGUGAAGAUGAA	0.261
AUUCAGUUGGAAGAUGGUUCUGCGGCCUAUGUUCAACAUGUACCCAUACCUAAAAGUAACCGUUAUGACCAGAGUGCAUUACAGGCGGUUCAGCUGGAAGAUGGUACCACAGCUUAUAUC	0.0778
GUUGCUGCCUUUAUGGACAUGGGUACCAAUUGCUUUUUGUAAUAUGGUAAAAAUGUGAGCCCGCACUUCUGCAUUGAUUUUUUUUUUUUUGUUUAACAUGUAUUCAGAUUGAGAAUAUGA	0.434
GGAUCCAGUCUUGGUGGAUGGCUCAUGCUGCAUGCUGCAAUUGCACGGCCGGAAAAAGUCACCGCUCUUAUUGGUAUAGCUACUGCUGCAGAUGGAUUGGUGACACAAUAUCAUGCACUU	0.207
GUUAUUUUAAUAAUUCCUUUAAAUUUUAUCUGUUGCUGUUACCUCUUGAAAUAUGAUUUAUUCCGAUUGCUAAUCCCACUCAUUCAGGAAAUGCCAAGAGGUUUUCUGUGGGGGAAAUGG	3.06
AUGGGCUUUCAUGUAAUCUAUAAGACACCCUGUGGUCUCUGCCUUCGGACGAUGCAGGAGACCGAGCGCUACCUUUUUGAGACUGGCUGUGACUUUCUGUUCCUGGAGAUGUUCUGUUUG	0.461

Block 2
Target: CCNB2, cyclin fold, Cln2 fusion (human)
Technique: yeast growth competition, sequencing
Sample: yeast
Notes: weak parent motif
Relative to: not given
Direction: higher = stronger binding
Parent: CDC25A docking peptide (human); PPHRRRLLFACSP; partner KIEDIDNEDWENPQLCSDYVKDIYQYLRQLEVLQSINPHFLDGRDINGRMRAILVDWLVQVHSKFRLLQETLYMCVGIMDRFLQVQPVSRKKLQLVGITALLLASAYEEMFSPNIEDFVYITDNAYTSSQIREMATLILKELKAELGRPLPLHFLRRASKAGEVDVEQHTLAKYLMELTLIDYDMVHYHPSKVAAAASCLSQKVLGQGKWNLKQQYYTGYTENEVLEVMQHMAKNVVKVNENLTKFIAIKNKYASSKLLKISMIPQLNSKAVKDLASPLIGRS
Change	normalised enrichment score
L7P	0.167
R4M	0.459
R6F	0.000384
S12V	0.746
R5K F9L	0.57
F9C	0.457
F9E	0.287
R4T	0.433
S12M	0.727
P2D	0.387
A10Y	-0.0368
F9P	0.202
L7D	0.407
R5G	0.282
P2G	0.839
L8V	0.47
P2A	0.417
L8A	0.584
R4F	1.01
R5T	0.207
H3S	0.99
F9W	0.445
A10P	-0.145
R6V	0.489
R5C	0.129

Block 3
Target: Histone acetyltransferase KAT6A, winged helix 2, GST fusion (KAT6A, Homo sapiens, UniProt Q92794, residues 85-181)
Technique: protein binding microarray
Molecule type: double-stranded DNA, one strand shown
Sample: in vitro
Concentration: not given
Notes: 8-mer, flanks averaged, mean of 2 arrays, mostly near background
Relative to: not given
Direction: higher = stronger binding
Residues (chain): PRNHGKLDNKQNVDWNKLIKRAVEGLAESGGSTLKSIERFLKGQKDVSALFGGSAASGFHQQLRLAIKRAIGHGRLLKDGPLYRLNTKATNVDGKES
Strand	E-score
GCATTAAC	0.0688
ATCACCTC	-0.0959
ACCATGCA	-0.0122
AGGCCGTC	-0.0127
GGCATGCA	0.0794
GCAACTGA	-0.00646
TCCGGCAA	0.125
AAACGCAA	0.0713
AGGCTAAG	-0.123
AGAGGTTG	0.075
AAGGACGA	0.0272
ATCCCCGC	0.187
ACGCGGAG	0.0237
GTAAGCCA	-0.119
AAGGTTTC	0.0179
GTAAAATA	0.0408
CCTACCTC	-0.0117
CGACTTGA	-0.136
ATTAGAAA	0.0681

Block 4
Target: RNA binding protein fox-1 homolog 2, RRM domain, GST-SBP tag (RBFOX2, Homo sapiens, UniProt O43251-10, residues 100-194)
Technique: RNA Bind-n-Seq
Molecule type: RNA
Sample: in vitro
Concentration: 365 nM
Notes: natural RNA segment, single round, ends assumed
Relative to: no-protein control
Direction: higher = stronger binding
Shared flanks, not repeated: GGGAGUUCUACAGUCCGACGAUC … UGGAAUUCUCGGGUGCCAA
Target sequence (chain): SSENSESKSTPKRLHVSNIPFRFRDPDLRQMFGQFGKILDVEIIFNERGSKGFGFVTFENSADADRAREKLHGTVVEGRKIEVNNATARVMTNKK
Strand	RBNS enrichment (R)
ACUGUCCCUGAAGCCUUCGCAUCUCAGCUCUUCACCCCUGGGAGGCAGCUGAUCGCCCUGCGUGCUGUGUCGCGCUGCUUUGUCCCAGACACAAACCAGCACGUCAAGGG	0.756
CAGGUUAUUAUUUGAAACUGUAUUACUCUACUCAGUAUUUUGGCCAGGUCCCAGUCCCGGGUUGCAGGUGUUGACUGCCACCAAGGUUUGAUACGGGAUCCAAAUUCAGG	0.424
GUGAAUACCUAGGAGAGUGUCAGCAUGUUUCUGGAAAAUUGGCAGAGACCAAGCCCUGCUGCAGAUUCGUCAGGCCAGGUGAAAGGGCCAGGCAGUUGCAGCUGAUGAUG	2.62
GGUGUUUAGUAUACCCAAGCAGAUAGGUGUCGAUCGAACAGGAGCAGGGAGAAUACUUCCAACAGUUGAGGUGUUACCAAACCACUUGAGAAUUCAUGAGCACUUUAACU	0.356
CAACCAAAAGACUAGAUUGUGCCUAAGCACUCCUUCUGGAACAACCGAAUGAUCAGCUGCAUAGCAAAGGACUGUGCCGCUGGCAUAUUGAUCUCAGAUAAAAACUUGUG	0.339
CCACCUGCAUUCCUGAGGAACUCUUGUUUACUGGUGCUGUGGCUCACAGGUCCCCCUCUGUGCCCUCCUUCAGCUUCCAGGCCAGACUUAGUAGAUAAAUAGUAAUAAUA	0.544
CCAGAAGUAGCAGAACCCUAGCUCUGUUUGUGUGACAUAGUAGGGUAUUAGACUAUGAGGUUGUGGUCUGGUAAGUCACUCAGCUGGCUCUGUUCAAAUGCAUUGAGAGA	0.492
UGAAGAUGGUUUAAGUUAUAGCUUCUUAAACGAAAGAAUAAAAUACUGCAAAAUGUUUUUAUAUUUGGCCCUUCCACCCAUUUUUAAUUGUGAGAGAUUUGUCACCAAUC	0.632
UGAUGUCUAUUCUCCGAGCAUAGCUCUGCCCUGAUUGGCAUUUUAUUCAGAGAGAUGUUUGUCACCUUUCUUUUUGGUAGACCUGUUGGGUUGGUUCCUAUUACAUGAGC	0.301
UCUGUGUGUGAAAUUUGGGCAUUCUGCUUUUCUCUACUAAUCUUGAAGUGCUCAGUGAUUUGUGUAUUUGUGUCUUUCUAACUUCUAAUAAACUCACUCCGACUGACCUG	0.476
ACUUUGUGAAUGCACCAUUUUGAUGAUCAUGAAACGCUGAUGAAAAAUGCCUCCAAACAUUUUUCUGUACUCAUACUUAGAUUCACAAUGGUUGUGUAUCUCUAUAAUGU	0.402
GUUUUCUUGAGCAGAGGGAUGGAACAGAGGGUGAGAGAGGCAGUGGCCGUCUCCACCUCAGCUCCUGCUCCCUCUGCAUCAGAGCCCUUCCUUUCUUGGGGGAUGGGCCU	0.429
